Measured values of several laboratories.
A part holds a random share of what one study measured. ± marks the error that the study gave.

Block 1
Cell line: HEK-293T
Read-out: pseudovirus infection
Technique: FDA-approved drug library screen
Organism: VSV pseudotyped with SARS-CoV-2 spike
Tested at: 10 µM
Time: 16 h
Relative to: vehicle-treated
Structure (SMILES) | GFP-positive cells [%]
OCCN1C[C@H](O)[C@@H](O)[C@H](O)[C@H]1CO | 73.7
CCC1(c2ccccc2)C(=O)NCNC1=O | 105
CC[C@H]1OC(=O)[C@H](C)[C@@H](O[C@H]2C[C@@](C)(OC)[C@@H](O)[C@H](C)O2)[C@H](C)[C@@H](O[C@@H]2O[C@H](C)C[C@H](N(C)C)[C@H]2O)[C@](C)(O)C[C@@H](C)[C@@H]2N[C@@H](COCCOC)O[C@H]([C@H]2C)[C@]1(C)O | 91.9

Block 2
Target: Cyclic AMP-responsive element-binding protein 1, full length (CREB1, Homo sapiens, UniProt P16220, residues 1-327)
Chain of UniProt P16220 (whole entry, looked up): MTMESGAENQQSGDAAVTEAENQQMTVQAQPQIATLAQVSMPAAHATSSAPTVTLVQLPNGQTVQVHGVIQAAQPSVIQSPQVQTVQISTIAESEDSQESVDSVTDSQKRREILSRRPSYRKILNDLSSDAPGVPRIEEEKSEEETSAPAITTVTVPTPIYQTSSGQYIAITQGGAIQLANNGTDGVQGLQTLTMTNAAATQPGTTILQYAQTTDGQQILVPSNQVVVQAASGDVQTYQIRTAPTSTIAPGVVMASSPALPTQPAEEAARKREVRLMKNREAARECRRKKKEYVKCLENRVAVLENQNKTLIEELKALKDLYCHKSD
Technique: protein-binding microarray
Molecule type: hairpin DNA
Sample: in vitro
Tested at: not given
Setting: whole hairpin DNA, median over replicate spots
Relative to: not given
Reading: higher = stronger binding
All sequences stand within: GAGGCCG … CGGCCTCACACTC
Sequence | median fluorescence [a.u.]
GCGGACGTCAGCCTCCTGGCTGACGTCCGC (5mC at 9 35) | 4520
ACGACGTCGTGCCTCCTGGCACGACGTCGT (5mC at 15 29 35) | 3310
GCGGACGTCAGCCTCCTGGCTGACGTCCGC (5mC at 9) | 4480
GCTGACGGCAGCCTCCTGGCTGCCGTCAGC | 3240
ACGACGTCGTGCCTCCTGGCACGACGTCGT (5mC at 9 35) | 4180

Block 3
Target: Replicase polyprotein 1ab, nsp13 helicase (rep, Severe acute respiratory syndrome coronavirus 2, UniProt P0DTD1)
Mode: inhibitor
Tested at: 20 µM
SMILES | inhibition [%]
Cc1nn(C)c2c1C(c1ccc(C(F)(F)F)cc1)C(C#N)=C(N)O2 (stereo not drawn) | -9.83
Brc1c(NC2=NCCN2)ccc2nccnc12 | 22.1
O=C(O)C1=CO[C@@H](O[C@@H]2O[C@H](CO)[C@@H](O)[C@H](O)[C@H]2O)[C@@H]2C(CO)=CC[C@H]12 | -2.89
N#C/C(=C\c1cccn1S(=O)(=O)c1cccc([N+](=O)[O-])c1)S(=O)(=O)c1ccc(F)cc1 | 8.07
CCOCC(O)COc1ccc(NC(=O)CC[S+](C)C)cc1 (stereo not drawn) | 8.45
CCC[C@H](N[C@H]1CCc2cc(F)cc(F)c2C1)C(=O)Nc1cn(C(C)(C)CNCC(C)(C)C)cn1 | 0.36
CCCCCCCC/C=C\CCCCCCCC(=O)NCCO | -1.29
NC(=O)c1ncn([C@@H]2O[C@H](CO)[C@@H](O)[C@H]2O)c1O | -5.11
NCCCCCC(O)(P(=O)(O)O)P(=O)(O)O | 2.65
O=c1c2ccccc2nc2n1CCCCC2 | 4.65
CCCCCCCCCCCC(=O)OCC(O)CO (stereo not drawn) | 0.61
Cc1cc(SCc2sc(-c3ccc(C(F)(F)F)cc3)nc2C)ccc1OCC(=O)O | 9.61
CCC1=C(C)CN(C(=O)NCCc2ccc(S(=O)(=O)NC(=O)N[C@H]3CC[C@H](C)CC3)cc2)C1=O | 8.61
O=C1NCN(c2ccccc2)C12CCN(CC1COc3ccccc3O1)CC2 (stereo not drawn) | 7.77
Nc1nnc(Sc2ncc([N+](=O)[O-])s2)s1 | 98.8
C[C@@H](Oc1cc(-n2cnc3ccc(CN4CCN(C)CC4)cc32)sc1C(N)=O)c1ccccc1C(F)(F)F | 72.4
CCN(CCNC(=O)Nc1ccccc1Br)c1cccc(C)c1 | 6.64
Cc1cc(N2CCOCC2)cc2[nH]c(-c3c(NC[C@@H](O)c4cccc(Cl)c4)cc[nH]c3=O)nc12 | 12.9
C=C[C@](C)(O)CC[C@@H]1[C@@]2(C)CCCC(C)(C)[C@@H]2CC[C@@]1(C)O | 3.33
Nc1ncnc2c1c(-c1ccc(Oc3ccccc3)cc1)nn2C1CCCC1 | -0.68
COCCOc1ccc2c(c1)ncn2-c1ccc2cccc(N3CCC(N)CC3)c2n1 | 6.95
O=S(=O)(O)c1cc(I)c(O)c2ncccc12 | 1.34
O=C(NOCC1CC1)c1ccc(F)c(F)c1Nc1ccc(I)cc1Cl | 10.1
COc1cccc2c1C(=O)c1c(O)c3c(c(O)c1C2=O)C[C@@](O)(/C(CO)=N/NC(=O)CCCCCN1C(=O)C=CC1=O)C[C@@H]3O[C@H]1C[C@H](N)[C@H](O)[C@H](C)O1 | 96.6
CCCCC(=O)NCCc1c(Cc2ccccc2)[nH]c2ccccc12 | 0.43

Block 4
Target: Replicase polyprotein 1ab, main protease (rep, Severe acute respiratory syndrome coronavirus 2, UniProt P0DTD1)
Read-out: enzyme activity
Mode: inhibitor
Tested at: 20 µM
Setting: hit confirmation
SMILES | inhibition [%]
O=S(=O)(O)c1cc(I)c(O)c2ncccc12 | 43.7
Nc1nc(=S)c2ncn(C3OC(CO)C(O)C3O)c2[nH]1 (stereo not drawn) | 111
N=C(N)c1cc2ccc(OC(=O)c3cccs3)cc2s1 | 23.2

Block 5
Target: Histone acetyltransferase KAT6A, winged helix 1, GST fusion (KAT6A, Homo sapiens, UniProt Q92794, residues 1-85)
Technique: protein binding microarray
Molecule type: double-stranded DNA, one strand shown
Sample: in vitro
Tested at: not given
Setting: 8-mer, flanks averaged, mean of 2 arrays, mostly near background
Relative to: not given
Reading: higher = stronger binding
Construct (chain): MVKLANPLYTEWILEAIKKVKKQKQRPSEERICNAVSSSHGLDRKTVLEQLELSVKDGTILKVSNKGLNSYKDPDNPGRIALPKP
Sequence | E-score
AGTGCGCA | 0.338
GAGTCTAA | -0.139
AGACTCCC | 0.0453
AAGGTGAT | -0.108
CACCTGGG | -0.286
AACGCTCA | 0.0947
CTAGAGCA | -0.0309
AGCGATAA | 0.112

Mixed results
CAMK2A: Calcium/calmodulin-dependent protein kinase type II subunit alpha (CAMK2A, Homo sapiens, UniProt Q9UQM7)
Chain of UniProt Q9UQM7 (whole entry, looked up): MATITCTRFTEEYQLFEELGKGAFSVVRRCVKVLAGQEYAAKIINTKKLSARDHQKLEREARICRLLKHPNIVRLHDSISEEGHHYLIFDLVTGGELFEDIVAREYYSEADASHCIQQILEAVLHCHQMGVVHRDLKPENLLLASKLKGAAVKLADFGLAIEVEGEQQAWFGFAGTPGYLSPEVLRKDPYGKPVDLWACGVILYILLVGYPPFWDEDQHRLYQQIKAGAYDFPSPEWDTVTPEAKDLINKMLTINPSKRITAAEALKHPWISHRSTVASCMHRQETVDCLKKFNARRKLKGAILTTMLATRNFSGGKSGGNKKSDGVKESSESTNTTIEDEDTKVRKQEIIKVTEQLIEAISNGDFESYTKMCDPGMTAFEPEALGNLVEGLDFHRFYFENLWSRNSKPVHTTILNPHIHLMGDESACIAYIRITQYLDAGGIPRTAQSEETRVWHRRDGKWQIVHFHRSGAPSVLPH
SMILES | tested on | assay | system | setting | how to read | quantity | value
CC(C)n1cnc(-c2ccc(F)cc2)c1-c1ncc(C(=O)Nc2ccc(N3CCN(C)CC3)cc2)[nH]1 | – | phase 2a clinical trial | patients with idiopathic pulmonary fibrosis | 30 mg once daily, all grades, SOC injury, poisoning, procedural complications | – | patients with injury TEAE | 0%
COC(=O)Nc1c(N)nc(-c2nn(Cc3ccccc3F)c3ncc(F)cc23)nc1N | CAMK2A | enzyme activity, inhibitor | – | 10 µM | – | inhibition | -15%
Fc1ccccc1Cc1nc(-c2nc(C(F)(F)F)n[nH]2)cn2ccnc12 | – | – | healthy volunteers | 1 mg, single ascending dose | relative to: placebo | smooth pursuit eye movements | -0.66%
C[C@H]1O[C@@H](O[C@H]2[C@@H](O)C[C@H](O[C@H]3[C@@H](O)C[C@H](O[C@H]4CC[C@@]5(C)[C@H](CC[C@@H]6[C@@H]5CC[C@]5(C)[C@@H](C7=CC(=O)OC7)CC[C@]65O)C4)O[C@@H]3C)O[C@@H]2C)C[C@H](O)[C@@H]1O | mouse MPNST tumor cells | high-content immunofluorescence imaging, measured: nuclear SOX9 | – | 10 µM, 12 h, mean of 2 replicates | relative to: DMSO control, higher = more nuclear SOX9 | nuclear SOX9 intensity | 122 % of DMSO
COC(=O)Nc1c(N)nc(-c2nn(Cc3ccccc3F)c3ncc(F)cc23)nc1N | – | – | human, plasma | oral, 2.5 mg single dose, alone, geometric mean | – | AUC | 1580 ng·h/mL
C[C@H]1O[C@@H](O[C@H]2[C@@H](O)C[C@H](O[C@H]3[C@@H](O)C[C@H](O[C@H]4CC[C@@]5(C)[C@H](CC[C@@H]6[C@@H]5CC[C@]5(C)[C@@H](C7=CC(=O)OC7)CC[C@]65O)C4)O[C@@H]3C)O[C@@H]2C)C[C@H](O)[C@@H]1O | CAMK2A | enzyme activity, inhibitor | – | 10 µM | – | inhibition | -3%
O=C(C1=NN(C2CCS(=O)(=O)C2)C(=O)CC1)N1CCN(C/C=C/c2ccccc2)CC1 (stereo not drawn) | – | – | mouse, microsomes or S9 | 2 µM, 0.5 h | – | remaining compound | 14.3%
Cc1c(S(=O)(=O)N2CCc3[nH]ncc3C2)cc(C(=O)NCc2cccnc2N2CCCC2)n1C | Replicase polyprotein 1ab, nsp14 (rep, Severe acute respiratory syndrome coronavirus 2, UniProt P0DTD1) | inhibitor | – | – | – | IC50 | 0.2 nM
C[C@H]1O[C@@H](O[C@H]2[C@@H](O)C[C@H](O[C@H]3[C@@H](O)C[C@H](O[C@H]4CC[C@@]5(C)[C@H](CC[C@@H]6[C@@H]5CC[C@]5(C)[C@@H](C7=CC(=O)OC7)CC[C@]65O)C4)O[C@@H]3C)O[C@@H]2C)C[C@H](O)[C@@H]1O | transmissible gastroenteritis virus | viral replication, immunofluorescence | ST cells | 6 h post-infection, pretreated 1 h | – | IC50 | 373 ± 32 nM
OC[C@H]1O[C@@H](O[C@@H]2[C@@H](O)[C@H](O[C@@H]3[C@@H](O)[C@H](O[C@@H]4[C@@H](O)[C@H](O[C@H]5[C@H](O)[C@@H](CO)OC(O)[C@@H]5O)O[C@H](CO)[C@H]4O)O[C@H](CO)[C@H]3O)O[C@H](CO)[C@H]2O)[C@H](O)[C@@H](O)[C@@H]1O (stereo partly drawn) | uncharacterized protein (Bacteroides thetaiotaomicron, UniProt A0A173VPY3) | ITC | – | pH 7.0, 25 °C | – | ΔG | -21 kcal/mol

Excerpt of the above (mixed results):
SMILES | tested on | assay | system | setting | how to read | quantity | value
Fc1ccccc1Cc1nc(-c2nc(C(F)(F)F)n[nH]2)cn2ccnc12 | – | – | healthy volunteers | 1 mg, single ascending dose | relative to: placebo | smooth pursuit eye movements | -0.66%
C[C@H]1O[C@@H](O[C@H]2[C@@H](O)C[C@H](O[C@H]3[C@@H](O)C[C@H](O[C@H]4CC[C@@]5(C)[C@H](CC[C@@H]6[C@@H]5CC[C@]5(C)[C@@H](C7=CC(=O)OC7)CC[C@]65O)C4)O[C@@H]3C)O[C@@H]2C)C[C@H](O)[C@@H]1O | mouse MPNST tumor cells | high-content immunofluorescence imaging, measured: nuclear SOX9 | – | 10 µM, 12 h, mean of 2 replicates | relative to: DMSO control, higher = more nuclear SOX9 | nuclear SOX9 intensity | 122 % of DMSO
COC(=O)Nc1c(N)nc(-c2nn(Cc3ccccc3F)c3ncc(F)cc23)nc1N | – | – | human, plasma | oral, 2.5 mg single dose, alone, geometric mean | – | AUC | 1580 ng·h/mL
C[C@H]1O[C@@H](O[C@H]2[C@@H](O)C[C@H](O[C@H]3[C@@H](O)C[C@H](O[C@H]4CC[C@@]5(C)[C@H](CC[C@@H]6[C@@H]5CC[C@]5(C)[C@@H](C7=CC(=O)OC7)CC[C@]65O)C4)O[C@@H]3C)O[C@@H]2C)C[C@H](O)[C@@H]1O | CAMK2A | enzyme activity, inhibitor | – | 10 µM | – | inhibition | -3%
O=C(C1=NN(C2CCS(=O)(=O)C2)C(=O)CC1)N1CCN(C/C=C/c2ccccc2)CC1 (stereo not drawn) | – | – | mouse, microsomes or S9 | 2 µM, 0.5 h | – | remaining compound | 14.3%
Cc1c(S(=O)(=O)N2CCc3[nH]ncc3C2)cc(C(=O)NCc2cccnc2N2CCCC2)n1C | Replicase polyprotein 1ab, nsp14 (rep, Severe acute respiratory syndrome coronavirus 2, UniProt P0DTD1) | inhibitor | – | – | – | IC50 | 0.2 nM
C[C@H]1O[C@@H](O[C@H]2[C@@H](O)C[C@H](O[C@H]3[C@@H](O)C[C@H](O[C@H]4CC[C@@]5(C)[C@H](CC[C@@H]6[C@@H]5CC[C@]5(C)[C@@H](C7=CC(=O)OC7)CC[C@]65O)C4)O[C@@H]3C)O[C@@H]2C)C[C@H](O)[C@@H]1O | transmissible gastroenteritis virus | viral replication, immunofluorescence | ST cells | 6 h post-infection, pretreated 1 h | – | IC50 | 373 ± 32 nM
OC[C@H]1O[C@@H](O[C@@H]2[C@@H](O)[C@H](O[C@@H]3[C@@H](O)[C@H](O[C@@H]4[C@@H](O)[C@H](O[C@H]5[C@H](O)[C@@H](CO)OC(O)[C@@H]5O)O[C@H](CO)[C@H]4O)O[C@H](CO)[C@H]3O)O[C@H](CO)[C@H]2O)[C@H](O)[C@@H](O)[C@@H]1O (stereo partly drawn) | uncharacterized protein (Bacteroides thetaiotaomicron, UniProt A0A173VPY3) | ITC | – | pH 7.0, 25 °C | – | ΔG | -21 kcal/mol
